Measurements collected from several papers.
Protocols differ between the studies behind these lines. “And” joins repeats or separate records; there may be more than shown. ± gives the spread as reported.

| Structure (SMILES) | cell line | assay | test system | setting | scale | quantity | result |
| --- | --- | --- | --- | --- | --- | --- | --- |
| Cc1cc2nc(-c3cc4ccccc4nc3Cl)[nH]c2cc1C | HepG2 | western blot, measured: Bcl-2 |  | concentration not given | baseline: untreated | protein level | decreased |
| CC(=C(c1ccc(Cl)cc1)c1ccc(OCCN2CCCC2)cc1)c1ccc(Cl)cc1 | NCI-60 tumour cell lines |  |  | 10 µM, mean over cell lines |  | growth inhibition | 21.6% |
| COc1cc(CNC(=O)C[C@H](C)CCC=C(C)C)ccc1OCc1cn(-c2ccc(F)cc2)nn1 | OVCAR-3 ovarian cancer cells | SRB |  | 10 µM, 48 h |  | growth percent | 108% |
| O=C1Nc2ccc(F)cc2C1=Cc1c(Cl)[nH]c2c1ccc1ccccc12 | leukaemia subpanel of NCI-60 |  |  | 48 h |  | TGI | 8.71 µM |
| CC[C@H](C)[C@H](NC(=O)[C@@H](NC(=O)C(C)(C)N)C(C)C)C(=O)N[C@@H](C)C(N)=O | PC-12 | Aβ42-induced neurotoxicity, inhibitor, MTT |  | concentration not given, 6 h, 37 °C, peptide to Aβ42 1:1, together with: Aβ42 2 µM | baseline: untreated cells | viability | 100% |
| O=C(/C=C/c1cccc(S(=O)(=O)Nc2cccc(F)c2)c1)NO | MOPC-315 | cell growth |  | 24 h | baseline: belinostat | relative potency | 0.869 |
| COc1ccc(NC(=O)COc2ccc(/C=C/C(C)=N/O)cc2OC)cc1 | SH-SY5Y | DCFDA flow cytometry |  | 40 µM, together with: amyloid beta 10 µM |  | ROS positive cells | 5.53% |
| CC(=O)OC[C@H]1O[C@@H](Sc2nc3c4cnn(C(=O)CNc5ccc(C)cc5)c4ncn3n2)[C@H](OC(C)=O)[C@@H](OC(C)=O)[C@@H]1OC(C)=O | HCT cells | annexin V-FITC/PI flow cytometry |  | concentration not given, 48 h |  | early apoptotic cells | 21.5% |
| COc1cc(CNC(=O)C[C@H](C)CCC=C(C)C)ccc1OCc1cn(-c2ccccc2)nn1 | SF-295 CNS cancer cells | SRB |  | 10 µM, 48 h |  | growth percent | 88.2% |
| Cc1cc(O)c2c(C(=O)[O-])[n+]3n(c2c1)CCCC3 | HepG2, palmitic acid-induced insulin resistance |  |  | 12.5 µM, 24 h |  | glucose consumption | 9.01 ± 0.5 mM |
| COc1ccc(-c2cc(C(F)(F)F)nc(SCC(=O)N(C)c3ccccc3)n2)cc1 | rat INS-1 832/13 cells |  |  | 20 µM, no GLP-1, together with: 15 mM glucose | baseline: DMSO | insulin secretion | increased |
| COc1cc(CNC(=O)C[C@H](C)CCC=C(C)C)ccc1OCc1cn(-c2cccc(Cl)c2)nn1 | OVCAR-4 ovarian cancer cells | SRB |  | 10 µM, 48 h |  | growth percent | 106% |
| CC(C)C[C@H](NC(=O)[C@H](CO)NC(=O)[C@H](C)NC(=O)[C@@H]1CCCN1C(=O)[C@H](Cc1c[nH]c2ccccc12)NC(=O)[C@H](CS)NC(=O)[C@H](CCC(=O)O)NC(=O)[C@H](CC(=O)O)NC(=O)[C@H](CC(N)=O)NC(=O)[C@H](CC(C)C)NC(=O)[C@@H](NC(=O)CNC(=O)[C@@H](NC(=O)[C@H](CO)NC(=O)[C@H](CC(C)C)NC(=O)[C@@H](NC(=O)[C@H](C)NC(=O)[C@H](C)NC(=O)CNC(=O)[C@H](CCC(=O)O)NC(=O)[C@H](CO)NC(=O)[C@@H]1CCCN1C(=O)[C@H](CC(C)C)NC(=O)[C@H](Cc1ccccc1)NC(=O)[C@H](CCC(N)=O)NC(=O)[C@H](CCC(=O)O)NC(=O)[C@H](CCCNC(=N)N)NC(=O)[C@H](CO)NC(=O)[C@@H](NC(=O)[C@H](C)NC(=O)[C@H](C)N)[C@@H](C)O)C(C)C)C(C)C)[C@@H](C)O)C(=O)O | MELOE-1(36-44)-specific HLA-A*0201 CD8 T cell clone | cross-presentation, cross-presentation by mature DC |  |  | baseline: full-length MELOE-1 over compound EC50 | potency ratio | ~100 fold |
| Nc1ncnc2c1c(-c1ccc(Cl)cc1)cn2[C@H]1C[C@H](O)[C@@H](CO)O1 | HEK | cytotoxicity |  |  |  | EC50 | > 200 µM |
| CO[C@H]1N(OC)c2ccccc2[C@@]12CN=C(Nc1cc(C(F)(F)F)cc(C(F)(F)F)c1)S2 (relative stereo) | HCT-116 | PI flow cytometry |  | 40 µM, 24 h |  | G2/M phase cells | 10.3 ± 1.29% |
| COc1ccc([C@@H]2CC(=O)c3c(O)cc(O[C@@H]4O[C@H](CO[C@@H]5O[C@@H](C)[C@H](O)[C@@H](O)[C@H]5O)[C@@H](O)[C@H](O)[C@H]4O)cc3O2)cc1O | MRC5 | trypan blue exclusion |  | 150 µg/mL, 48 h |  | cell count | 11200 ± 514 |
| Cc1c(C(=O)NNC(=S)Nc2ccc(Cl)cc2)nnn1Cc1nc2ccccc2[nH]1 | HepG2 | annexin V/PI |  | concentration not given, 24 h |  | apoptotic cells | 37.4% |
| COc1cc(CNC(=O)C[C@H](C)CCC=C(C)C)ccc1OCc1cn(-c2ccc(C#N)cc2)nn1 | HCC 2998 | SRB |  | 10 µM, 48 h |  | growth percent | 89.5% |
| O=C1C[C@@H](c2ccc(O)c(O)c2)c2c(cc(O)c3c2O[C@H](c2ccc(O)c(O)c2)[C@H](O)C3)O1 | rat L6 myotubes |  |  | 10 µg/mL, 24 h |  | glucose uptake stimulation | 80.9 ± 3.26% |
| CC(Cc1ccc(Cl)cc1)=C(c1ccc(Cl)cc1)c1ccc(OCCN(C)C)cc1 | NCI-60 cell lines | NCI five-dose screen |  | median over 60 lines |  | GI50 | 4.34 µM |
| CC(=O)OC[C@H]1O[C@@H](Sc2sc(C(=O)c3ccc(C)cc3)c(N)c2-c2nc3ccccc3s2)[C@H](OC(C)=O)[C@@H](OC(C)=O)[C@@H]1OC(C)=O | HCC 2998 | SRB |  | 10 µM, 48 h | baseline: untreated | growth | 92.2% |
| Cc1cc(/N=N/c2ccc(/N=N/c3ccc(O)c(C(=O)O)c3)cc2)c(N)cc1N | primary mouse articular chondrocytes | real-time PCR, measured: Phlpp1 |  | 25 µM |  | mRNA level | decreased |

| Structure (SMILES) | cell line | assay | test system | setting | scale | quantity | result |
| --- | --- | --- | --- | --- | --- | --- | --- |
| COc1cc(Cc2c[nH]c3ncc(C(F)(F)F)cc23)cc(OC)c1 | 4T1 | western blot |  | concentration not given, 24 h |  | Bcl-2 protein level | decreased |
| CCC(=C(c1ccc(Cl)cc1)c1ccc(OCCN2CCOCC2)cc1)c1ccccc1 | NCI-60 tumour cell lines |  |  | 10 µM, mean over cell lines |  | growth inhibition | 5.16% |
| CC(=O)O[C@@H]1CC[C@@]2(C)C(CC[C@]3(C)C2C(=O)C=C2C4[C@@H](C)[C@H](C)CC[C@]4(C)CC[C@]23C)[C@@]1(C)C(=O)OCC(=O)Oc1cc(C)ccc1C(C)C (stereo partly shown) | HepG2 |  |  | 10 µM, acetaminophen-induced injury, together with: 10 mM acetaminophen |  | MDA level | 3.9 nmol/mg |
| Nc1c(S(=O)(=O)O)cc(Nc2cccc(S(N)(=O)=O)c2)c2c1C(=O)c1ccccc1C2=O | primary mouse articular chondrocytes | real-time PCR, measured: Sox9 |  | 25 µM, micromass culture |  | mRNA level | increased |
| COc1cc(CNC(=O)C[C@H](C)CCC=C(C)C)ccc1OCc1cn(-c2cccc(C(F)(F)F)c2)nn1 | OVCAR-4 ovarian cancer cells | SRB |  | 10 µM, 48 h |  | growth percent | 45.1% |
| CO[C@@H]1[C@H](N(C)C(=O)c2ccccc2)C[C@H]2O[C@]1(C)n1c3ccccc3c3c4c(c5c6ccccc6n2c5c31)C(=O)NC4 | CLL patient B cells | flow cytometry | human | 1000 nM | baseline: untreated | viable CD19+ B cells | 12% |
| CC[C@H](C)[C@H](NC(=O)[C@@H](NC(=O)[C@@H](N)C(C)C)C(C)C)C(=O)N[C@@H](C)C(=O)O | PC-12 | Aβ42-induced neurotoxicity, inhibitor, MTT |  | concentration not given, 6 h, 37 °C, peptide to Aβ42 1:1, together with: Aβ42 2 µM | baseline: untreated cells | viability | 78.9% |
| CC(C)=CCc1c(O)cc(CO)cc1O | HepG2, palmitic acid-induced insulin resistance |  |  | 10.0 µM, 24 h |  | glucose consumption | 4.77 ± 0.47 mM |
| COc1cc(CNC(=O)C[C@H](C)CCC=C(C)C)ccc1OCc1cn(-c2cccc([N+](=O)[O-])c2)nn1 | SF-295 CNS cancer cells | SRB |  | 10 µM, 48 h |  | growth percent | 96.5% |
| CSC(=NN=C(C)c1ccc(S(=O)(=O)N2CCC(C)CC2)cc1)N(C)C | HepG2 | annexin V/PI staining |  | IC50, 72 h |  | apoptotic cells total | 22% |
| COc1ccc(CNc2nc3c(c(=O)[nH]2)[n+](C)cn3C2OC(COP(=O)(O)OP(=O)([O-])OP(=O)(O)OCC3OC(n4cnc5c(=O)[nH]c(N)nc54)C(O)C3O)C(O)C2O)cc1 (stereo not shown) | HEK293 transfected with capped mRNA | luciferase expression |  |  | baseline: m7GpppG-capped mRNA | relative protein expression | 2.18 and 2.2 |
| COc1ccc(CC(C)=C(c2ccc(Cl)cc2)c2ccc(OCCN3CCCCCC3)cc2)cc1 | NCI-60 tumour cell lines |  |  | 10 µM, mean over cell lines |  | growth inhibition | 22.4% |
| Clc1ccc(C=[N+]2N=C(Nc3ccccc3)[S][Pt-]2([Cl])[Cl])s1 | HEL human lung fibroblasts | altered cell morphology, microscopy |  | confluent cultures |  | cytotoxic concentration | 60 µM |
| COCCNCC(=O)N(CCCCN)CC(=O)N(CC(=O)N(CC(=O)N(CCCCN)CC(=O)N[C@@H](CCCCN)C(=O)N[C@H](CCCCN)C(=O)N[C@@H](CCSC)C(=O)NCCCC[C@H](NC(=O)[C@H](CCSC)NC(=O)[C@@H](CCCCN)NC(=O)[C@H](CCCCN)NC(=O)CN(CCCCN)C(=O)CN(C(=O)CN(Cc1ccc2c(c1)OCO2)C(=O)CN(CCCCN)C(=O)CNCCOC)[C@H](C)c1ccccc1)C(N)=O)[C@H](C)c1ccccc1)Cc1ccc2c(c1)OCO2 | H358 | MTS |  | 6 days |  | antiproliferative onset concentration | 30 µM |
| CC(=NN=c1sc(C(=O)c2ccccc2)nn1-c1ccccc1)c1ccc(S(=O)(=O)N2CCC(C)CC2)cc1 | HepG2 | annexin V/PI staining |  | IC50, 72 h |  | apoptotic cells early | 6.38% |
| CC(C)=C1CC[C@]2(COC(=O)c3ccccc3)[C@@H](OC(=O)c3ccccc3)/C=C(\C)CC[C@@H]3O[C@@]3(C)C[C@@H](OC(=O)c3cccnc3)[C@@H]12 | HepG2, palmitic acid-induced insulin resistance |  |  | 15 µM, 24 h |  | glucose consumption | 8.56 ± 0.58 mM |
| COc1cc(CNC(=O)C[C@H](C)CCC=C(C)C)ccc1OCc1cn(-c2ccccc2Cl)nn1 | SF-268 CNS cancer cells | SRB |  | 10 µM, 48 h |  | growth percent | 82.4% |
| C=CC(=O)Nc1cc(-c2nn(C3CCN(CCNC(=O)[C@H](C)CCC45CC6CC(CC(C6)C4)C5)CC3)c3ncnc(N)c23)ccc1Oc1ccccc1 | PC-9 GR4 HER3 C721S | cell growth, CellTiter-Glo |  |  | baseline: C721S over wild-type HER3 | EC50 shift | 6 fold |
| COc1cc(CNC(=O)C[C@H](C)CCC=C(C)C)ccc1OCc1cn(-c2ccc(Cl)cc2Cl)nn1 | SF-295 CNS cancer cells | SRB |  | 10 µM, 48 h |  | growth percent | 41.8% |
| CCC(=C(c1ccc(Cl)cc1)c1ccc(OCCN(CC)CC)cc1)c1ccc(Cl)cc1 | NCI-60 tumour cell lines |  |  | 10 µM, mean over cell lines |  | growth inhibition | 29.5% |
| CSCC[C@H](NC(=O)[C@H](CO)NC(=O)[C@@H](N)CO)C(=O)N[C@@H](CCCCN)C(=O)N[C@@H](CC(C)C)C(=O)N[C@@H](CO)C(=O)N[C@@H](Cc1ccccc1)C(=O)N[C@@H](CCCNC(=N)N)C(=O)N[C@@H](C)C(=O)N[C@@H](CCCNC(=N)N)C(=O)N[C@@H](C)C(=O)N[C@@H](Cc1ccc(O)cc1)C(=O)NCC(=O)N[C@@H](Cc1ccccc1)C(=O)N[C@@H](CCCNC(=N)N)C(=O)NCC(=O)N1CCC[C@H]1C(=O)NCC(=O)N1CCC[C@H]1C(=O)N[C@@H](CCC(N)=O)C(=O)N[C@@H](CC(C)C)C(=O)O | mouse primary hepatocytes | immunoblot |  | concentration not given |  | IR and IRS-1 tyrosine phosphorylation | no effect |
